Assay results gathered from unrelated publications.
Compare with care: the assays were run in different laboratories. ± gives the spread as reported.
HDAC6: Protein deacetylase HDAC6 (HDAC6, Homo sapiens, UniProt Q9UBN7)
Chain of UniProt Q9UBN7 (whole entry, looked up): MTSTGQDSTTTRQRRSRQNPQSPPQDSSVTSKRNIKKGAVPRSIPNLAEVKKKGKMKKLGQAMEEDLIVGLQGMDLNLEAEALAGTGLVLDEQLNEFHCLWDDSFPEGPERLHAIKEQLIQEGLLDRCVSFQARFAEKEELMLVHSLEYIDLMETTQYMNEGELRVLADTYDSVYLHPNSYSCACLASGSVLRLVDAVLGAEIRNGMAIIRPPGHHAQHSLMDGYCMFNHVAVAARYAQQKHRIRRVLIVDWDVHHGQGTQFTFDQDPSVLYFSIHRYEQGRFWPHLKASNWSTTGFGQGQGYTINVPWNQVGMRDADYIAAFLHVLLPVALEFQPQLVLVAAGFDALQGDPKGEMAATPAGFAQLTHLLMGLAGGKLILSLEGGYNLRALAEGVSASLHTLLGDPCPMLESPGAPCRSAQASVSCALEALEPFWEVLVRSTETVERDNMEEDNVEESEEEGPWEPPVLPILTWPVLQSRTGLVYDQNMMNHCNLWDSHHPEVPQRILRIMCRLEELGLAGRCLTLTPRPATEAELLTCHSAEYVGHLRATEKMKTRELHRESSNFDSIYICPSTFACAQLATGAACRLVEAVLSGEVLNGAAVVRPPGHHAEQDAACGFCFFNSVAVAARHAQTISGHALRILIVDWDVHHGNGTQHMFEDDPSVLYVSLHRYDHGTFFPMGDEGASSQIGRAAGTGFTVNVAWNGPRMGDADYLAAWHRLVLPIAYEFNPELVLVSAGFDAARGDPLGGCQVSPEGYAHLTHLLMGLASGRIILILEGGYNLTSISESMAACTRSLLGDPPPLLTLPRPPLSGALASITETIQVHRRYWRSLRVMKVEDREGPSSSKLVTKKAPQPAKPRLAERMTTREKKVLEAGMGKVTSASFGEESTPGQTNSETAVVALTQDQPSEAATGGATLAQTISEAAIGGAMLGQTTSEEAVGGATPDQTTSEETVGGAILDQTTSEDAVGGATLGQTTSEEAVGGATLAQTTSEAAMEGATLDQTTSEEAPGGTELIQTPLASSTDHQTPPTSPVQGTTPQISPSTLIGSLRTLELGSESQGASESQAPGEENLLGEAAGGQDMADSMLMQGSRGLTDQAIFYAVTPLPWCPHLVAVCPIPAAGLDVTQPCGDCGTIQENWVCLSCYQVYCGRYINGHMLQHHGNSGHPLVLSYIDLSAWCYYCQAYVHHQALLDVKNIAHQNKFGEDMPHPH
HDAC6 ZnF-UBD domain: Protein deacetylase HDAC6, ZnF-UBD domain (HDAC6, Homo sapiens, UniProt Q9UBN7)
SMARCA2: SWI/SNF-related matrix-associated actin-dependent regulator of chromatin subfamily A member 2 (SMARCA2, Homo sapiens, UniProt P51531)
USP13 ZnF-UBD domain: Ubiquitin carboxyl-terminal hydrolase 13, ZnF-UBD domain (USP13, Homo sapiens, UniProt Q92995)
Chain of UniProt Q92995 (whole entry, looked up): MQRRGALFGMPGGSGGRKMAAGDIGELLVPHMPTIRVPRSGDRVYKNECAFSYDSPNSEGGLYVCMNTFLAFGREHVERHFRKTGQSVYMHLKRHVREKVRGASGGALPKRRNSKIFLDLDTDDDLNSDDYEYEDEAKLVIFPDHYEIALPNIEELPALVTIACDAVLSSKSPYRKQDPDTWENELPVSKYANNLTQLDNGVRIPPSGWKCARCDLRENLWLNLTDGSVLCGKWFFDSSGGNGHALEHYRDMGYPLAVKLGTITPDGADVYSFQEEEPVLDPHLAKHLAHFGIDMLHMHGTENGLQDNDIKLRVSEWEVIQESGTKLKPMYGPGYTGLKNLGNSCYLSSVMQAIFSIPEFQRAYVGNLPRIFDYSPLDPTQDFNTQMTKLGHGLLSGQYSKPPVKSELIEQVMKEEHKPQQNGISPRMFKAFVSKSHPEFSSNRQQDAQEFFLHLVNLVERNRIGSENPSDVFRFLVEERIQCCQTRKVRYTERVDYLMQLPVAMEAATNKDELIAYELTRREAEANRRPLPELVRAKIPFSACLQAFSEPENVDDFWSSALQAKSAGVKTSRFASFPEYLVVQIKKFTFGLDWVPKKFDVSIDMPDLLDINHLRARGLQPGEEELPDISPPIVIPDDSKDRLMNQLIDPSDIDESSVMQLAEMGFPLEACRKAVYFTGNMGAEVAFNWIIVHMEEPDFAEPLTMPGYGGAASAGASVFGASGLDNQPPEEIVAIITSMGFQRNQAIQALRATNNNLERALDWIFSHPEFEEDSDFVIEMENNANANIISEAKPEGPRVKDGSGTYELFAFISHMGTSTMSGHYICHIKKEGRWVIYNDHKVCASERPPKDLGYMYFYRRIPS
Chain of UniProt P20813 (whole entry, looked up): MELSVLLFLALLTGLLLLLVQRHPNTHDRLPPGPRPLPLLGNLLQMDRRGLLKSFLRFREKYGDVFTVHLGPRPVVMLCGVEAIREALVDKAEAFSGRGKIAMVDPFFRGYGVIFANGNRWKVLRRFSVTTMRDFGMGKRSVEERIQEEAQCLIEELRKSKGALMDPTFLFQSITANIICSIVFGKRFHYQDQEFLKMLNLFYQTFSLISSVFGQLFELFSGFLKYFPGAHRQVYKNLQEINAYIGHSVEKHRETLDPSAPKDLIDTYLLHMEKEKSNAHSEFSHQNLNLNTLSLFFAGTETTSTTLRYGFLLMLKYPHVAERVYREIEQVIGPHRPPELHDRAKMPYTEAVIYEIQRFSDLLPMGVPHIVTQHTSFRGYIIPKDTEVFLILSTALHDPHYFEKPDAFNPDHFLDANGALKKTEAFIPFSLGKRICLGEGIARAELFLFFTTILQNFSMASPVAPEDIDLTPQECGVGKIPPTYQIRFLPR
Chain of UniProt P13267 (whole entry, looked up): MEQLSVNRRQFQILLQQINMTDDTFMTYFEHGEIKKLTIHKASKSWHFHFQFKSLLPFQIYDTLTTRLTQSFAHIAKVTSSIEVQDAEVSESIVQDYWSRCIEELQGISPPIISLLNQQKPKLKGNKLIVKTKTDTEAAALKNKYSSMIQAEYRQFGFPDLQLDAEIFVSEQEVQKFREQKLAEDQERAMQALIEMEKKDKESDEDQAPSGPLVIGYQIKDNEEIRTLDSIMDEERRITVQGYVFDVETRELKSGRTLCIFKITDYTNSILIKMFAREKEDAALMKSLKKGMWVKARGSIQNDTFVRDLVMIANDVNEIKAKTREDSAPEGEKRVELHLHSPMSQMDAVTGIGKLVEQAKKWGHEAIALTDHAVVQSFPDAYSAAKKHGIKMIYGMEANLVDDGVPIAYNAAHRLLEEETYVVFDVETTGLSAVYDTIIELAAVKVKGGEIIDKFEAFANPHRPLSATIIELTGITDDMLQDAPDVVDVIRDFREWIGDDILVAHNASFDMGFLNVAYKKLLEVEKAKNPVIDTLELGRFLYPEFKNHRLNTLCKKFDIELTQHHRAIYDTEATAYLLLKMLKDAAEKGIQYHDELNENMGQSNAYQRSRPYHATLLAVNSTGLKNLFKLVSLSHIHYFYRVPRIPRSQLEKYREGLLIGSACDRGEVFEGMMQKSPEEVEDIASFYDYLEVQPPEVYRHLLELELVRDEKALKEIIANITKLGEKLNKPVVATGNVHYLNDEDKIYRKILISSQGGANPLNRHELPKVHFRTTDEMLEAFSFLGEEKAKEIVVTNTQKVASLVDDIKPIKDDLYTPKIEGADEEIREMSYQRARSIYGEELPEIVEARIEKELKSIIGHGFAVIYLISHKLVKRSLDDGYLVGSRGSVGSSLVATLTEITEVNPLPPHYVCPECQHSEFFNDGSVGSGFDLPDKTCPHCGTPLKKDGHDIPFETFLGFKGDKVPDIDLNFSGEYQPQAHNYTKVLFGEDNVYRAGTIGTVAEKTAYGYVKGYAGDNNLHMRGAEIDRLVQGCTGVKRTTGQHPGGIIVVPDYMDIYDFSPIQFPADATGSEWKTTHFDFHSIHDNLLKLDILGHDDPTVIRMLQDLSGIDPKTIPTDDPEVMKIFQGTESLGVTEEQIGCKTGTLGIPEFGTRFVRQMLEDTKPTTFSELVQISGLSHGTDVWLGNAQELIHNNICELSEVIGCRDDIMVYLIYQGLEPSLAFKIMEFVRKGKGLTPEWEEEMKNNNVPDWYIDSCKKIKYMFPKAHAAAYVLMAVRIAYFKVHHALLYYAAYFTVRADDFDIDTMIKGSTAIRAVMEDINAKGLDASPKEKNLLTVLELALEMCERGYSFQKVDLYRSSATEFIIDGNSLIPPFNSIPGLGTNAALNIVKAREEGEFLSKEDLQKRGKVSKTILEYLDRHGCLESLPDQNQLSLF
Chain of UniProt P18089 (whole entry, looked up): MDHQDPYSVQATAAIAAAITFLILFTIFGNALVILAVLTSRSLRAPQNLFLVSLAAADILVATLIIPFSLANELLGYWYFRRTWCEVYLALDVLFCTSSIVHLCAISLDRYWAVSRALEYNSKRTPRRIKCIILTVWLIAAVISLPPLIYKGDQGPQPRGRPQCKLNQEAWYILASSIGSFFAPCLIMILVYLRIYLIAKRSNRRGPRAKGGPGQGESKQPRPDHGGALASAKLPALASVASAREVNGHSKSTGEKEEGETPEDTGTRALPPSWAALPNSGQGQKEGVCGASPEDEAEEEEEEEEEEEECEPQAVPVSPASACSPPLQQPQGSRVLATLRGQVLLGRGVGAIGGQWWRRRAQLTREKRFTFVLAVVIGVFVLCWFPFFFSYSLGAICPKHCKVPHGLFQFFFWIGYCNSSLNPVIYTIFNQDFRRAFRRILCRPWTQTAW
Chain of UniProt P34995 (whole entry, unmodified, looked up): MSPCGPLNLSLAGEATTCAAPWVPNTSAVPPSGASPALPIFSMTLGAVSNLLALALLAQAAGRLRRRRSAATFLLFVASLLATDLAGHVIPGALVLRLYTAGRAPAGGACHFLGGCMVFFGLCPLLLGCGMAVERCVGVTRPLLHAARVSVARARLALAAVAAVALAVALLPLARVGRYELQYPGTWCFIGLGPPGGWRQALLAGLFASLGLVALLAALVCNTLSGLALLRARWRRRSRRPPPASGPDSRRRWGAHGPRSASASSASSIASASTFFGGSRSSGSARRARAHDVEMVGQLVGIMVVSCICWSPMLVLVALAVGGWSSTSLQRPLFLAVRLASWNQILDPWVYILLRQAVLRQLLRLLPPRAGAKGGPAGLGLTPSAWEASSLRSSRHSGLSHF
Chain of UniProt P00698 (whole entry, looked up): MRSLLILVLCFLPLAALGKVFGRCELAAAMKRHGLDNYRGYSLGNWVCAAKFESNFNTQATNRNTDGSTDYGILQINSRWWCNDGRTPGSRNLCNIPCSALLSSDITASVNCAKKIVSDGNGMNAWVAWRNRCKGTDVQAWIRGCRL

For `CN(CCCCCCNC(=O)COc1ccc(C2CCC(=O)NC2=O)cc1)Cc1cn(Cc2ccc(C(=O)NO)cc2)c2ccccc12` (centres unmarked), the DC50 was 0.0045 ± 0.0004 µM (HDAC6; degrader, western blot; MM1.S cells; 24 h).
The Kd of `O=C(O)CCc1ccc2c(c1)OCO2` is reported as > 1000 µM (HDAC6 ZnF-UBD domain).
For `Nc1nnc(-c2ccccc2O)cc1N1CCN(Cc2ccc(OCCOCCNc3cccc4c3C(=O)N(C3CCC(=O)NC3=O)C4=O)c(F)c2)CC1` (centres unmarked), the DC50 was 0.0928 µM (SMARCA2; degrader, immunoblot; SMARCA4 wild-type cells; 96 h, median of twelve cell lines).
The DC50 of `Cc1ncsc1-c1ccc(CNC(=O)[C@@H]2C[C@@H](O)CN2C(=O)[C@@H](NC(=O)C2(F)CC2)C(C)(C)C)c(OCCOc2ccc(CN3CCN(c4cc(-c5ccccc5O)nnc4N)CC3)cc2)c1` is reported as 0.00529 µM (SMARCA2; degrader, immunofluorescence; SW1573).
With `CC(=O)N[C@H]1[C@H](O[C@H]2[C@H](O)[C@@H](NC(C)=O)C(O)O[C@@H]2CO)O[C@H](CO)[C@@H](O[C@@H]2O[C@H](CO)[C@@H](O)[C@H](O)[C@H]2NC(C)=O)[C@@H]1O` (some centres unmarked) the Kd was 15.4 ± 1.8 µM (Lysozyme C (LYZ, Gallus gallus, UniProt P00698); surface sampling native MS; charge state 8+).
For `CSc1ccccc1C(=O)NCCn1cc(C(=O)NCc2cccc(C)n2)c(=O)c2cc3c(cc21)OC(F)(F)O3`, the IC50 was > 100 µM (Cytochrome P450 2B6 (CYP2B6, Homo sapiens, UniProt P20813); enzyme activity, inhibitor; human liver microsomes; 20 min, 30 min NADPH preincubation, added: bupropion 50 µM).
The Kd of `O=C(O)CCc1ccccc1` is reported as > 1000 µM (HDAC6 ZnF-UBD domain).
For `CCCCC[C@H](O)/C=C/[C@H]1[C@H](O)CC(=O)[C@@H]1C/C=C\CCCC(=O)O`, the EC50 was 1.08 µM (Prostaglandin E2 receptor EP1 subtype (PTGER1, Homo sapiens, UniProt P34995, F334A/G92A/P39A); IP1 accumulation, agonist; AD293).
`Nc1nnc(-c2ccccc2O)cc1N1CCN(Cc2ccc(N3CCN(CCOc4cccc5c4C(=O)N(C4CCC(=O)NC4=O)C5=O)CC3)c(F)c2)CC1` (centres unmarked) has a DC50 of 0.066 µM (SMARCA2; degrader, immunoblot; H1792 SMARCA4 wild-type; 72 h).
The Kb of `CCN1/C(=C/C(C)=O)Sc2ccc(F)cc21` is reported as 1.1 µM (Alpha-2B adrenergic receptor (ADRA2B, Homo sapiens, UniProt P18089); competitive antagonist, TGFα shedding).
Under “fold change in expression”, `Cn1cc(-c2ccc(-c3cncc(Cl)c3N3CCC4(CCNC4=O)CC3)cc2)cn1` is recorded as 1.54 (COLO 205; microarray, refers to: KITLG; concentration not given, 2 h, gene set MGF; relative to: untreated cells).
For `O=C(O)CCn1ccccc1=O`, the Kd was > 1000 µM (HDAC6 ZnF-UBD domain).
The DC50 of `Cc1ncsc1-c1ccc([C@H](C)NC(=O)[C@@H]2C[C@@H](O)CN2C(=O)[C@@H](NC(=O)CN2CCN(c3cc(-c4ccccc4O)nnc3N)CC2)C(C)(C)C)cc1` is reported as 0.00174 µM (SMARCA2; degrader, immunofluorescence; SW1573).
`Nc1nc(CC(=O)O)cs1` has a Kd of > 1000 µM (USP13 ZnF-UBD domain).
For `Cc1ccc(Nc2cc(O)nc(O)n2)cc1Cl`, the Ki was 0.64 µM (DNA polymerase III PolC-type (Bacillus subtilis, UniProt P13267); inhibitor).
The DC50 of `Cc1ncsc1-c1ccc(CNC(=O)[C@@H]2C[C@@H](O)CN2C(=O)[C@@H](NC(=O)C2(F)CC2)C(C)(C)C)c(OCCOc2ccc(CN3CCN(c4cc(-c5ccccc5O)nnc4N)CC3)cc2)c1` is reported as 0.013 µM (SMARCA2; degrader, capillary electrophoresis; SK-MEL-5; 18 h).
With `O=C(O)Cn1cnc2c(oc3ccccc32)c1=O` the Kd was > 1000 µM (USP13 ZnF-UBD domain).
With `CC[C@@H]1[C@H](F)C(=O)N[C@@H]1COc1nccc2cc(C(N)=O)c(OC)cc12` the IC50 was 0.91 µM (Serine/threonine-protein kinase 16 (STK16, Homo sapiens, UniProt O75716); ATP-site probe binding, ActivX profiling; THP-1 cell lysate; Lys2 site).
The Kd of `O=C(O)CCc1nc2ncccn2n1` is reported as > 1000 µM (HDAC6 ZnF-UBD domain).
The DC50 of `O=C(COc1ccc(C2CCC(=O)NC2=O)cc1)NCCCCCCN1CCc2c(c3ccccc3n2Cc2ccc(C(=O)NO)cc2)C1` (centres unmarked) is reported as 0.0013 ± 0.0005 µM (HDAC6; degrader, western blot; MM1.S cells; 24 h).
